Assay results gathered from unrelated publications.
Every numbered part comes from another study and shows a few of its results, in no order. Substitutions count along the parent as printed.

Set 1
Target: Max-binding protein MNT, bHLH-zipper, MAX partner unstated (MNT, Homo sapiens, UniProt Q99583, residues 220-300)
Method: protein-binding microarray
Molecule type: double-stranded DNA, one strand shown
Matrix: in vitro
Tested at: not given
Setting: k-mer, scored over probes, only values ≥0.25
Reading: higher = stronger binding
Target sequence (chain): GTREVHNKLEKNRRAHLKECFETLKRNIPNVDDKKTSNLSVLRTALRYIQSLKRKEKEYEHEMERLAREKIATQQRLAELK
Oligonucleotide	E-score
CGTGGGTC	0.335
ACATGTCG	0.283
ACAGCATG	0.428
CATCGTGC	0.33
ATGTGGGC	0.33
CGTGGAGC	0.376
GCACGGGA	0.341
AGTACATG	0.262
ACCCACCA	0.252
CCCCTCCC	0.35
ATGTGCCA	0.268
CAGCCCCA	0.265
AAGCGCGC	0.282
CCATGCCG	0.388
ACGTGTAT	0.456
CGAGCCAC	0.276
AAACGCGT	0.27
ACGCGGCC	0.254

Set 2
Target: RING finger protein unkempt homolog, zinc fingers 1-6, GST-SBP tag (UNK, Homo sapiens, UniProt Q9C0B0, residues 30-357)
Method: RNA Bind-n-Seq
Molecule type: RNA
Matrix: in vitro
Tested at: not given
Setting: RNA with constant flanks, human and mouse sites, ends assumed
Relative to: input RNA pool
Reading: higher = stronger binding
Constant ends, left off below: GGGAGUUCUACAGUCCGACGAUC … CAACAGAGGAUUGAGCAUCA
Construct (chain): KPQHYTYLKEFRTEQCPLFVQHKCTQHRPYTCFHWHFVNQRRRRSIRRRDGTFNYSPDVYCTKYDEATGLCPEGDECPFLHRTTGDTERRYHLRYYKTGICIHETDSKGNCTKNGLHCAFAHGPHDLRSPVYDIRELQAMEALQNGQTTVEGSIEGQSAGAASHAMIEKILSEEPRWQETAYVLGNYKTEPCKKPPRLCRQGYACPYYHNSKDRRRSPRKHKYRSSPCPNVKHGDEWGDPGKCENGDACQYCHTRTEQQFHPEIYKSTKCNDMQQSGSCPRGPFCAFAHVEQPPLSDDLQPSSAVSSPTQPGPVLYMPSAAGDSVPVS
Oligonucleotide	bound/input enrichment
AGAUAGUAAUUUUUAAAAUUUGCUCUUGUCAUUUGGGAUUUGUUUUGUUUGGGAUUUUGUUGUGUGUGAUUUGUUUUGUUUUGUUUUGCAGAUUUCAGGUAACAAAGUGAGACGCUUAUG	11.4 ratio
CGUGGAGAUGCAGACCAGGCCAGUAACAUUUUGGCCAGCUUUGGUCUGUCUGCUAGAGACUUAGAUGAACUGAGUCGUUAUCCAGAGGACAAGAUUACUCCUGAGAAUUUGCCCCAAAUC	0.056 ratio
GCCUUUGAAGUGGAACAUGAAUGCUUGGGCAAAUGUCAGGGUCUCUUUGCGCCUCAGUUUUAUGUUCAGCCCGACGCUCCCUGUAUCCAGUGCCUGGAGUGCUGUGGAAUGUUUGCUCCC	0.195 ratio
GAGGUUCCUGCGGACUAGCGGUGGCUUCGCGUGGGUGGAGGAGGCGCGGCUGCAGUCUUUAAGAAAUAGAAAUGGCUUCCAAAAGAGCUCUGGUCAUCCUGGCCAAAGGAGCAGAGGAGA	0.234 ratio
UCCAGGUCUCUCCAAACUGACUAUAUAUUUAUUUGUUAUUUUAAAAAUACAACUAUAUUUUGGGUAGUUUUUUUUUUUUUUUUUUUGAUAAGUUGGUGUAAGGCUAUGUGACUUGAUCAA	4.96 ratio
UGGCAGCUGGCUUCUUUGGCUCGUUAUUAUGUCUGUGAGAUUUAUUCAUGUUGCUGUGCGUAGUAUAGUUUGUGCAUGUUCAUUGCUAAAAACUUCCAUUGUUUGGCUGUAUCGUAGUUC	0.637 ratio
UCCGGUUUGGUGAUCAAUACAGCUGGAGAAAUGGCUGGAGCUUUUGUGGCAGUGUUUUUACUAGCAAUGUUCUAUGAAGGACUCAAGAUAGCCCGAGAGAGCCUGCUGCGUAAGUCACAA	0.136 ratio
GUGGGAGAUUUGGUACUCAUCAUCCUAGACGAACGCCAUGACAAUUAUGUGUUAUUUACUGUUAGUCCUACUUUAUAUUUUCUACAUUCAGAGUCUCUACCUGCCCUGGAUCUCAAACCA	3.01 ratio
GAUGCCCGAGAUUCCUUGGUCAAGUUUUUUGGGCCUCUCAGUUCAAACACACUCCACCAGGUGGCAUCAUACCUCUGCCUCUUGCCAACGCUCCCUAAAAAUGAAGACACAACUUUUGAU	0.241 ratio
AAGUGACUGAGUAUAAUAUUCCAGAAAAAUUUGAAAUCCUAAUUUCUUCCAUAUUUCAUUAAAUUUUUUGCAUACAGGUCUAACAAAUAUGGAUAUGUAUACACAUCCUCUUUAAUGAAG	0.245 ratio
GAUUUCUGUACUCUGAUAUCCAUCAAAGUGCAUAACAUAGUACUCAUGAUGCAAGUUACUGUGACAACAACAUACUUUGGCCACUCUGAACAGAUAUCCCAGGAGAGGUAUCAGUAUGUC	0.172 ratio

Set 3
Target: CCNE2, cyclin fold, Cln2 fusion (human)
Method: yeast growth competition, sequencing
Matrix: yeast
Setting: strong parent motif
Relative to: not given
Reading: higher = stronger binding
Starting sequence: ANKRD17 docking peptide (human); PSVRRQLFVTVVK; partner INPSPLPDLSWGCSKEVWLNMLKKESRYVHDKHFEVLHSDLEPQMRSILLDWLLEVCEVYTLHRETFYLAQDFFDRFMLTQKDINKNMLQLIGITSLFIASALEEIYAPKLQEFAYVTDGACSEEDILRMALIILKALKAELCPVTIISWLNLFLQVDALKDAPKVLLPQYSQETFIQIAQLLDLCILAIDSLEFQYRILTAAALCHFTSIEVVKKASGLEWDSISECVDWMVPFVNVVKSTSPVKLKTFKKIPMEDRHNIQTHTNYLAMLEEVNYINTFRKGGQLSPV
Change	normalised enrichment score
PSVRKQLLVTVVK [R5K F8L]	1.47
PSVRRQLFVTVVA [K13A]	4.29
PSVRRQLFVTVAK [V12A]	3.98
PSVRAQLFVTVVK [R5A]	1.83
PSVRRQLFVAVVK [T10A]	4.08
PAVRRQLFVTVVK [S2A]	3.67
PSVRRQLFVTAVK [V11A]	4.61

Set 4
Target: Interferon regulatory factor 3, full length, phosphomimetic (IRF3, Homo sapiens, UniProt Q14653, residues 1-427, S386D/S396D/S398D/S402D/T404D/S405D)
Chain of UniProt Q14653 (whole entry, unmodified, looked up): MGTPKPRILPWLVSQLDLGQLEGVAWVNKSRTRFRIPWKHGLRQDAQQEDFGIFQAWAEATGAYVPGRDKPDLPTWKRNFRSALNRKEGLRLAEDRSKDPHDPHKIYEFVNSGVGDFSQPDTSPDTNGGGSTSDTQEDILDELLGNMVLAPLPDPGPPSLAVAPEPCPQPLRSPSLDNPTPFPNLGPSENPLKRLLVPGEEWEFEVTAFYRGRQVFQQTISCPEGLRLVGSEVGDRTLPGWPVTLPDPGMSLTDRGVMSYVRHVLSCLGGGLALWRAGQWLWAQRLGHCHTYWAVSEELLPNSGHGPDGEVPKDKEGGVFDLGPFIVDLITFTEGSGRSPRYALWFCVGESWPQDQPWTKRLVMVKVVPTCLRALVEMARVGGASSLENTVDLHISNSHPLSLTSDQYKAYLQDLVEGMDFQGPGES
Method: protein-binding microarray
Molecule type: double-stranded DNA, one strand shown
Matrix: in vitro
Tested at: 2540 nM top
Setting: 60-bp whole probe
With: salmon DNA 0.4 mg/ml
Relative to: random background probes
Reading: higher = stronger binding
Constant ends, left off below: GCCTAGCAC … GTCTTGATTCGCTTGACGCTGCTG
Oligonucleotide	fitted relative affinity [z-score]
ATTTTTTTGTAATCGAAATCTGTGCTA	0.939
TGGTTTTCCTTATTGCTTCCTGTGCTA	4.38
TTAGGTTTCCTTTTTCTTTAGTGCTAG	11.3
GACGGTTTCCTTATCCTGGCGTGCTAG	8.4
TCATGTTTCTCAACCAGACTGTGCTAG	1.28
GATGGTCTCCTTCTCCTGACGTGCTAG	3.94
TTAGGAATGGACTATCGGTTAGTGCTA	-0.326
TTAGAACTGAGACTGGGTTAGTGCTAG	-0.491
TACGGTATCGGACTGGGGACGTGCTAG	1.24
GACGGTATCGGGCTCGGGACGTGCTAG	0.987
TTAGTTATCCTACTGCTTTAGTGCTAG	1.41

Set 5
Target: RNA binding protein fox-1 homolog 2, RRM domain, GST-SBP tag (RBFOX2, Homo sapiens, UniProt O43251-10, residues 100-194)
Method: RNA Bind-n-Seq
Molecule type: RNA
Matrix: in vitro
Tested at: 365 nM
Setting: natural RNA segment, single round, ends assumed
Relative to: no-protein control
Reading: higher = stronger binding
Constant ends, left off below: GGGAGUUCUACAGUCCGACGAUC … UGGAAUUCUCGGGUGCCAA
Construct (chain): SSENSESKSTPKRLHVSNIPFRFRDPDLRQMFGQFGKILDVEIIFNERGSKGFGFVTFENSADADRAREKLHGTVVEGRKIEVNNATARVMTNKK
Oligonucleotide	RBNS enrichment (R)
CAACCCUCUUCUGCCUCUGCCGGUUGUGGAACAAAUGACUAUCCUGAACAGGGUGGAGGGGUGUGGGAAAGAAACCAGCCAUAUUGGUUUUGGUUUCUGUAUUUUUCACA	0.295
AUUCAAAGUCAGAAAAACAUCAAGAACUUCUUUGAUGCAUAGGGUGUAUCAGCACUCAGCUCCCACAGAAGUCAAGUCACAAAAUAUAGUGUCAGUUAACUAUAAGGAAG	0.301
GAUUAUUUACUUUGUUUAUUGUCUAUAUGCCUUUUAAAAAAAUAAACUUGUUAUGCAAAAUAAAACAUUUGGGUAAGUUGUUUUAGUAUCAUAGCCAAGUGGCCAGAUCU	0.682
CCUACCAGCUGCUGCUAGCCCUCUGUGGUUGUGCACCCCUCUUGCCCCCAUUCAGGGGCCGACUAACACCCUUUAUCCAAUGGUGCUAACCCCGGCUCUCCCUUUUCCAC	0.325
GAGCUUUUACCUUGGAAAAGGUAAAGAUGGAAAUGUACACCAAAAAAGACAAUUUUUACAUUUAAUGGAACAUUCUUUUUUUUUACAAGUAUAUUUUUCUACUGAUAGUU	0.421
UUUUGACUGAAAGUACUAAAAGUCAGCUUUACUAGUGCCAAACCUUUAAAUUUUCAAAAGAAAAUUUUCUUUCAACAUUUCUUGAAGGACAUGGAGUGGAGAUUGGAUCA	0.338
AUAUUCAAGGCAGUGGUCUGUGGCUACAGGAAGCUGGUUCUACUGUCUGCUUAACAAACUGUCUUUGUGAGUACAGAGAUUGGGUUUACCACUUCUGCUGAGGAGACCAC	0.379
GCACACAAACUAUGAGCAGACCACUUCAGCUUGAGAAUGCAGUGGGUCUGAAGAUGGUCAAGUCUGUUUGCCUUAGAUUUUGAUGUCACCUAGACAACACUUAAACUCAU	13.2
CAGGAAAAGAAUCUCUGUGCUCUAAAUCUCGGUCAGAGCUGUGGCCUCCCCCUUGCCUUUAACCUCUAGUUUAGUCUUUUCCUCCAGGCAUGAAAAAUAUGACUAACCUG	0.825
UUGACUUAGGGUCAUAGUACGAGGGGAAUCCACUCCGUGGAAACCUCGGAAUGUCUGAGAAGGGAUAAUUUCAUUUCUAAAAGCUCUGAGCACCGUGAGUUUGAUCUCGA	0.214
CUAAGCUGAAAAGCACUCUUGUCAGAAUUUAGACCUAACUAAGAUUCAUCAGUUCCUAACCUACUCUGCAGAACUGCAACAGUUCGCUCAGGCCAGUGUUGAAACUUUCA	0.157
UCUCAUAGGACGGAGGGGGAAAUGGUUUCCCUCCAAGCUUGGGUCAGUGUGUUAACUGCUUAUCAGCUAUUCAGACAUCUCCAUGGUUUCUCCAUGAAACUCUGUGGUUU	0.285

Set 6
Target: Histone acetyltransferase KAT6A, winged helix 2, GST fusion (KAT6A, Homo sapiens, UniProt Q92794, residues 85-181)
Method: protein binding microarray
Molecule type: double-stranded DNA, one strand shown
Matrix: in vitro
Tested at: not given
Setting: 8-mer, flanks averaged, mean of 2 arrays, mostly near background
Relative to: not given
Reading: higher = stronger binding
Construct (chain): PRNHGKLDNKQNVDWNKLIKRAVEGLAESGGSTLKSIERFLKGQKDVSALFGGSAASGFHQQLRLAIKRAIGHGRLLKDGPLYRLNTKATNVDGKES
Oligonucleotide	E-score
GCTAGTAA	-0.0343
CACCTCCG	0.178
CTACCAGC	-0.0772
ACGCTAAC	-0.025
CTTACGAC	-0.276
ACACACGG	0.00979
CTGTGCAA	0.0849
GAATATAC	-0.266
CAATTAAC	-0.069
CACGCAAG	0.172
AAAAGCAC	-0.00136
GGGACTCA	-0.0944
ATGAAATC	0.103
GCTTGCCA	0.0989
CTTTAGAC	-0.0484
CCTAGTCG	-0.0608
GCTGGACC	0.0931
